Results of several laboratories.
Each line is one published result; not all experiments were run side by side. Values joined by “and” are separate records of one study, mostly repeats; a detail may differ. ± marks the error that the study gave. Converted amounts (≈) assume the structure as drawn.

| SMILES | cell line | assay | test system | setting | how to read | endpoint | result |
| --- | --- | --- | --- | --- | --- | --- | --- |
| Cc1ccc(-n2cc(CSc3nc4ccccc4n3Cc3cn(-c4ccc(C)cc4)nn3)nn2)cc1 | MDA-MB-231 | MTT | – | 62.5 ppm | – | viability | 12.2% |
| C[C@@H]1CN(c2cc(=O)n(C)c3ccc(C#N)nc23)[C@@H](C)CN1Cc1ccc(S(=O)(=O)n2cnc(C3CC3)n2)cc1 | CT2A-luc | – | – | concentration not given, without immune cells | relative to: DMSO | cell proliferation | no effect |
| CCOc1cncc(-c2ccc(NC(=O)C3(c4ccnc(NS(=O)(=O)C5CC5)n4)CCOCC3)nc2)n1 | EJM | cell growth or viability, ATP luminescence | – | 72 h | – | IC50 | 32 nM |
| COc1ccc2c(c1)c(CC(=O)[Se]CC(=O)Nc1cccc(C(F)(F)F)c1)c(C)n2C(=O)c1ccc(Cl)cc1 | NCI60 CNS cancer panel | five-dose screen | – | – | – | GI50 | 1820 nM |
| CCN(C(=O)c1cc(F)ccc1Oc1nncnc1N1CCC2(C1)CN([C@H](CCCN(C)CCOC)C(C)C)C2)C(C)C | Panc1005 | cell growth or viability | – | 72 h | – | GI50 | > 10000 nM |
| O=C(C[Se]C(=O)c1cc2ccccc2o1)Nc1cccc(C(F)(F)F)c1 | NCI60 CNS cancer panel | five-dose screen | – | – | – | GI50 | 1700 nM |
| CCc1c(C)c2ccc(OC(C)C)c(C)c2oc1=O | PC-3 | cell growth or viability, MTT | – | 500 µg/mL | – | viability | 2.47% |
| CCC(CC)n1c(Cc2cccs2)nc2cc(C(=O)NC(CC(=O)O)CC(C)C)ccc21 (centres unmarked) | H9c2 | – | – | concentration not given, 48 h, with: ISO and MCM | – | LDH release | decreased |
| COc1cccc(OC)c1-c1cc(C(=O)NC2(C(=O)O)C3CC4CC(C3)CC2C4)nn1-c1ccc(C(=O)N(C)CCOCCOCCN(C)C(=O)[C@H](CCCCNC(=O)[C@H](CC(C)C)NC(=O)C2OC2C(=O)O)NC(=O)CN2CCN(CC(=O)[O-])CCN(CC(=O)[O-])CCN(CC(=O)[O-])CC2)cc1C(C)C.[177Lu+3] (mixture of isomers) | HT-29 | – | – | concentration not given, 240 min | relative to: added activity | surface-bound fraction | 0.71 ± 0.05% |
| C=CC(=O)N1[C@@H](c2ccc3c(c2)OCO3)c2[nH]c3ccccc3c2C[C@H]1C(=O)NC1CC1 | rat DRG neurons | – | – | 30 µM, 48 h, with: vincristine 40 nM | – | mean neuron degeneration | 16.5% |
| Cc1ncsc1-c1ccc(C(C)NC(=O)C2CC(O)CN2C(=O)C(NC(=O)CCCCCCCCCCN2CCCC(Nc3ncc(Cl)c(Nc4ccccc4S(=O)(=O)C(C)C)n3)C2)C(C)(C)C)cc1 (centres unmarked) | 22Rv1 | RNA-seq, refers to: PHLDA1 mRNA | – | concentration not given | relative to: DMSO | log2 fold change | -1.15 |
| COC(=O)c1cc(NC2=NC(=O)C(=Cc3ccc(N(C)C)cc3)S2)ccc1OC(C)=O | A549 | refers to: BARD1 mRNA | – | 2.93 µM (IC50), 24 h | relative to: DMSO | fold change | 0.0451 |
| CCCCCCc1cccc([C@H](O)C[C@H](CO)NC(=O)CCCCCCCCCCBr)c1 | HeLa | CERT activity, HPLC-MS/MS lipidomics, refers to: ceramide 20 | – | 1 µM, 24 h, not cell-number normalised | – | ceramide level | 107 pmol/sample and 121 pmol/sample and 116 pmol/sample |
| CN(C)Cc1nc(Nc2ccc(-c3cnc4cc(F)ccn34)c3c2C(=O)NC3)ccc1C1CCOC1 (centres unmarked) | human CD8 T cells | cytokine induction, refers to: GM-CSF | – | with: anti-CD3/CD28 | – | EC50 | 17 nM |
| Cn1ncc2cc(-c3cncc(Cl)c3N3CCC4(CCNC4=O)CC3)ccc21 | LS174T | gene expression, microarray, refers to: ALOX5 mRNA | – | concentration not given, 4 h | relative to: untreated cells | log2 fold change | 1.15 |
| COc1ccccc1-c1ccncc1C(=O)Nc1ccc(OCc2ccc(Cl)cc2)nn1 | DLD-1 BRCA2 wild-type parental | colony formation | – | 40 µM | relative to: untreated control | colony survival | 1.41% |
| COC(=O)[C@@]1(C)C=C(C(=O)Nc2cccc(C(=O)Nc3ccc(Nc4nccc(-c5cccnc5)n4)c(C)c3)c2)C(=O)CC1 | HEK293 AP1 reporter cells | AP-1 reporter gene, inhibitor | – | 10 µM, 6 h, unit not given, with: PMA | relative to: PMA alone | reporter activity | 0.0374 and 0.0509 |
| O=C1CCCC2=C1C(c1c[nH]c3ccccc13)c1cc(Br)ccc1O2 (centres unmarked) | 3T3-L1 | cell growth or viability, MTT | – | 72 h | – | IC20 | 104 µg/mL (≈ 264 µM) |

| SMILES | cell line | assay | test system | setting | how to read | endpoint | result |
| --- | --- | --- | --- | --- | --- | --- | --- |
| Cc1cc(NC2CCN(C)CC2)ccc1-c1cc2c(N3CCC[C@H](C(=O)NCc4ccc(OC(F)(F)F)cc4)C3)ncnc2[nH]1 | KARPAS-299 | cell growth or viability, MTT | – | 5 µg/mL, 72 h | – | inhibition | 87.2% |
| C=CC(=O)N1CCCC(n2c(=O)c3ncccc3n(Cc3ccc(Oc4ccccc4)cc3)c2=O)C1 (centres unmarked) | Rec1 | refers to: ZNF710-AS1 | – | concentration not given | relative to: untreated | log2 fold change | 0.366 |
| CO[C@@H]1[C@@H](OC(N)=O)[C@@H](O)[C@H](Oc2ccc3c(O)c(NC(=O)c4ccc(O)c(CC=C(C)C)c4)c(=O)oc3c2C)OC1(C)C | HCT-116 parental | – | – | 75 µM, replicate 2 | – | colony count | 18.5 |
| CN1CCCNC(=O)c2cccc(c2)C(=O)NCCCN(C)CCCNc2cccc3c2C(=O)c2cccc(c2C3=O)NCCC1 | SAS | RNA-Seq, refers to: PPP1R12A mRNA | – | 1 µM, 6 h | relative to: untreated cells | log2 fold change | -0.484 |
| C=C1C(=O)OC2C1CCC(C)(O)C13C=CC(C)(C21)C1(C3)C(=O)OC2C3C(C)C(=O)CC3C(=C)CC(OC(C)=O)C21 (centres unmarked) | AML12 | Western blot, refers to: FoxO1 | – | concentration not given, with: palmitate/oleate | – | nuclear protein level | increased |
| CC[C@H]1CN([C@@H](CC)c2ccc(C(F)(F)F)cc2)[C@H](CC)CN1c1nc(=O)n(C)c2ccc(C#N)nc12 | human CD4+ T cells | protein phosphorylation, phosphoproteomics, refers to: CACTIN Ser139 phosphorylation | – | 1 h, stimulation 60 min | – | EC50 | 6.02 nM |
| CNS(=O)(=O)Nc1nccc(Cc2c(C)c3ccc(Oc4ncccc4F)cc3oc2=O)c1F | NCI-H441 | cell viability | – | 7 days | – | IC50 | 2.31 nM |
| CCN(CC)CC(=O)Nc1cccc(-n2cc(-c3ccc4ccc(-c5cn(-c6cccc(NC(=O)CN(CC)CC)c6)nn5)cc4c3)nn2)c1 | RCC4 | PCR array, refers to: HGF | – | 5 x IC50, 6 h, normoxia | relative to: untreated | fold regulation | 1.06 |
| COc1c(C)c(O)c(C(=O)C=Cc2ccccc2)c(OC)c1C | FaDu | SRB | – | – | relative to: normal over FaDu IC50 | selectivity index | 1.02 |
| C=C1C(=O)OC2C1CCC(C)(O)C13C=CC(C)(C21)C1(C3)C(=O)OC2C3=C(C)CC(O)C3C(=C)CC(OC(=O)C(C)=CC)C21 (centres unmarked) | AML12 mouse hepatocytes | lipid accumulation, Nile Red staining | – | maximum safe concentration, 24 h, with: palmitic acid/oleic acid | – | maximum inhibition | 21.1 ± 3.24% |
| COc1ccc(CNc2ccc3c(c2)S(=O)(=O)C=C3)cc1 | U-87 MG spheroids | – | Matrigel invasion | 1 µM, 3 days | – | spheroid area | 0.98 ± 0.14 mm² |
| CC(C)c1ccc(N(C)c2ccc3c(c2)OCC[C@H]3CNc2cnccc2C(=O)O)cc1 | NCI-H2171 | cell growth or viability, ATP luminescence | – | 7 days | – | IC50 | ≥ 10000 nM |
| Cc1cc(Cl)cc(-c2ccnc3cc(CN4C(=O)C5C(C4=O)C5(C)C)sc23)c1C[C@@H]1CNCCO1 (some centres unmarked) | CHP-212 parental | PI flow cytometry | – | 1 µM, 24 h | – | S phase cells | 12.3% |
| CN1CCN(C(=O)c2ccc(-c3cc4c(N5CCC[C@H](C(=O)NCc6ccc(OC(F)(F)F)cc6)C5)ncnc4[nH]3)cc2)CC1 | KARPAS-299 | cell growth or viability, MTT | – | 0.2 µg/mL, 72 h | – | inhibition | 75.6% |
| COc1cc(N2CCN(C(=O)C3CCCN3)CC2)ccc1Nc1ncc(Cl)c(Nc2ccccc2P(C)(C)=O)n1 (centres unmarked) | NCI-H3122 | flow cytometry | – | 500 nM, 24 h | – | S phase cells | 6.86% and 8.85% and 7.55% |
| COc1ccccc1-c1ccncc1C(=O)Nc1nnc(OCc2ccc(Cl)cc2)s1 | MDA-MB-436 BRCA1-mutant | – | – | 1.5 µM | – | colony count | 13 and 12 and 10 and 9 and 15 |
| COc1ccc(NC(=O)c2ccc3[nH]c(-c4ccc(N(C)C)cc4)nc3c2)cn1 | HCT116 | IncuCyte | – | concentration not given, 0 h | – | dead cell to confluence ratio | 0.55 and 1.04 and 1.51 |

Some of these lines once more:
| SMILES | cell line | assay | test system | setting | how to read | endpoint | result |
| --- | --- | --- | --- | --- | --- | --- | --- |
| COc1ccc2c(c1)c(CC(=O)[Se]CC(=O)Nc1cccc(C(F)(F)F)c1)c(C)n2C(=O)c1ccc(Cl)cc1 | NCI60 CNS cancer panel | five-dose screen | – | – | – | GI50 | 1820 nM |
| C=C1C(=O)OC2C1CCC(C)(O)C13C=CC(C)(C21)C1(C3)C(=O)OC2C3C(C)C(=O)CC3C(=C)CC(OC(C)=O)C21 (centres unmarked) | AML12 | Western blot, refers to: FoxO1 | – | concentration not given, with: palmitate/oleate | – | nuclear protein level | increased |
